# Values quoted from earlier work, collected from citations in different studies.
# Each line is one published result; not all experiments were run side by side.
# CDK2: Cyclin-dependent kinase 2 (CDK2, Homo sapiens, UniProt P24941)
# PTGS2: Prostaglandin G/H synthase 2 (PTGS2, Homo sapiens, UniProt P35354)
# Sequence of UniProt P35354 (whole entry, looked up): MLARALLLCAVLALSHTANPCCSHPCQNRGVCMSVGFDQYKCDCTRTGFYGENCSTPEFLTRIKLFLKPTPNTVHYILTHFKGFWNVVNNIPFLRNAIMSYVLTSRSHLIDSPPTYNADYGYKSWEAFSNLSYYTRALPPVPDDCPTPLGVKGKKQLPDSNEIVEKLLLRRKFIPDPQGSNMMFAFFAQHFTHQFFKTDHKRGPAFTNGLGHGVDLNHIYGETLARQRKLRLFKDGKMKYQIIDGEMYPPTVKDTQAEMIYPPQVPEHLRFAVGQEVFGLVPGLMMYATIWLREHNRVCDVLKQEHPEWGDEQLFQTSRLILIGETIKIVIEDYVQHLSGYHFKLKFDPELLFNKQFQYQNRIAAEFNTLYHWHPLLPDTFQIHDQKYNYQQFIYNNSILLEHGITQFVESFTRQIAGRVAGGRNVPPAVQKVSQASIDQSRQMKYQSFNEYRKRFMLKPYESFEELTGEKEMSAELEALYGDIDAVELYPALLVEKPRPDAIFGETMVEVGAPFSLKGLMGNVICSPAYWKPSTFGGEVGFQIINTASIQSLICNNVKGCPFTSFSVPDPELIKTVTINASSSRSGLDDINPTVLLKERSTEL
# Sequence of UniProt Q99814 (whole entry, looked up): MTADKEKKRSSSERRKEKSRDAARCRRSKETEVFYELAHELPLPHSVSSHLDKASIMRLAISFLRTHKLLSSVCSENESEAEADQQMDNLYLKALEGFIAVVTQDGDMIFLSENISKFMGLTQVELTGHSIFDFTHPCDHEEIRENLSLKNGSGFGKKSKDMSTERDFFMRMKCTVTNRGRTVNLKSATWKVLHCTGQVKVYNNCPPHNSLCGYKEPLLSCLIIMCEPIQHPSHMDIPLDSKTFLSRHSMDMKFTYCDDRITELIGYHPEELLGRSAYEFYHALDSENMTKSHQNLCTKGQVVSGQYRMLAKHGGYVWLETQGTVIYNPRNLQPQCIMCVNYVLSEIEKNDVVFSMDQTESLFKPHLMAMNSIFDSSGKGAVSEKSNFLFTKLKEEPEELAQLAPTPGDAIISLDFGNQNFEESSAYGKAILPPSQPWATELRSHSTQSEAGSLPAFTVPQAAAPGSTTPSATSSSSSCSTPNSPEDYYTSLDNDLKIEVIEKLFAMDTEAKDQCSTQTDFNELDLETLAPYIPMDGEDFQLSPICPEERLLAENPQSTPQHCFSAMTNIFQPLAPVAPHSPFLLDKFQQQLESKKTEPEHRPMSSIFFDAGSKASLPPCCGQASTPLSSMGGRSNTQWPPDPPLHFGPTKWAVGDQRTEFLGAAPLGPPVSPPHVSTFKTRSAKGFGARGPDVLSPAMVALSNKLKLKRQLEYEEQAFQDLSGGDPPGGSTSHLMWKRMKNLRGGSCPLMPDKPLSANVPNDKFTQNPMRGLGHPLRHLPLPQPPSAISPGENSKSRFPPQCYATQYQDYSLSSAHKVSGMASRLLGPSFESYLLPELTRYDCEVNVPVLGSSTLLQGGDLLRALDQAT
SMILES,target,test,test system,setting,measurement,result
CCS(=O)(=O)c1ccc2cc1CN(C)C/C=C/CCOc1cccc(c1)-c1ccnc(n1)N2,CDK2,,,,IC50,22 nM
CCOc1ccc(Cc2cc([C@@H]3O[C@H](CO)[C@@H](O)[C@H](O)[C@H]3O)ccc2Cl)cc1,ERRα,,,,Kd,1990 nM
Oc1ccc(C=Cc2cc(O)cc(O)c2)cc1,unknown plasma membrane protein,,,,Kd,220 nM
CN1C/C=C/CCOc2cccc(c2)-c2ccnc(n2)Nc2cc(N)cc(c2)C1,CDK2,,,,IC50,7 nM
CC(C)=CCc1cc2c(cc1O)O[C@H](c1ccc(O)cc1)CC2=O,estrogen receptor alpha,agonist,,,EC50,320 nM
Fc1ncccc1-c1ccc2c(n1)[nH]c1ccncc12,tau aggregates,"binding, Scatchard analysis","human, Alzheimer's disease brain tissue",,Kd,3.7 nM
O=[N+]([O-])c1cc(C(F)(F)F)ccc1NCc1ccsc1,"Endothelial PAS domain-containing protein 1, PAS-B domain (EPAS1, Homo sapiens, UniProt Q99814)","binding, isothermal titration calorimetry",,<0.1% DMSO,Kd,600 nM
C[C@H](CCCC(C)(C)O)[C@H]1CC[C@H]2[C@@H]3CC=C4C[C@@H](O)CC[C@]4(C)[C@H]3CC[C@]12C,"Osh4 protein, yeast",binding,,,Kd,55 nM
Cn1nc(C(=O)NCCc2ccccc2)c2c1-c1nc(Nc3ccccc3)ncc1CC2,CDK2,,,,IC50,697 nM
CCCN1CC(c2ccc(S(C)(=O)=O)cc2)=C(c2ccc(C)cc2)C1=O,PTGS2,inhibitor,,,IC50,18 nM
c1ccc2c(c1)Cc1ccccc1-2,amyloid beta fibrils,binding,,,Kd,~1 nM
CN1CCN(c2ccc(Nc3ncc4cc(C#N)c(=O)n(C5CCCC5)c4n3)cc2)CC1,CDK2,,,,IC50,159 nM
CNC(=O)[C@@]12C[C@@H]1[C@@H](n1cnc3c(NCc4cccc(Cl)c4)nc(C#Cc4ccc(F)c(F)c4)nc31)[C@H](O)[C@@H]2O,beta-3 adrenergic receptor,radioligand binding,,,Ki,1500 nM
O=C(CCCCCCC(=O)Nc1ccccc1)NO,HDAC complex,binding,,ex vivo,Kd,400 nM
CCc1cccc(CC)c1NC(=O)c1nn(C)c2c1CCc1cnc(Nc3ccc(C(N)=O)cc3OC)nc1-2,CDK2,,,,IC50,5570 nM
Cc1nccn1CCC(C(N)=O)(c1ccccc1)c1ccccc1,muscarinic M3 receptor,antagonist,,,Kb,0.317 nM
COc1ccc2c(c1)c(CC(=O)O)c(C)n2C(=O)c1c(Cl)cc(Cl)cc1Cl,PTGS2,inhibitor,,,IC50,500 nM
CNc1ccc(-c2nc3ccccc3s2)cc1,amyloid-beta aggregates,"binding, fluorescence saturation binding",,,Kd,5230 nM
CCc1ccccc1-c1ccc(C(=O)NC[C@@H](N)C(=O)O)o1,"Glutamate receptor ionotropic, NMDA 1, with GluN2D (Grin1, Rattus norvegicus, UniProt P35439)",,,together with: saturating glutamate,EC50,150 nM
Nc1scc2c1c(NCCO)nc1nc(NCCO)nc(N)c12,CDK2,,,,IC50,90 nM
Cc1c(Cl)cccc1Nc1ccccc1C(=O)Nc1ccc(N2CCNCC2)cc1,PTGS2,inhibitor,,,IC50,2310 nM
CCS(=O)(=O)CNc1cc2cc(c1)Nc1nccc(n1)-c1cccc(c1)OCC/C=C/CN(C)C2,CDK2,,,,IC50,8 nM
CC(C)(c1ccc(O)cc1)c1ccc(O)cc1,zebrafish estrogen receptor alpha,agonist,,,EC50,599 nM
CN1C/C=C/CCOc2cc(F)cc(c2)-c2ccnc(n2)Nc2cccc(c2)C1,CDK2,,,,IC50,9 nM
CCCCCCCCCCCCCCCCCCOC(=O)c1cc(O)c(O)c(O)c1,PTGS2,inhibitor,,,IC50,28200 nM

# Repeated from above:
SMILES,target,test,test system,setting,measurement,result
O=[N+]([O-])c1cc(C(F)(F)F)ccc1NCc1ccsc1,"Endothelial PAS domain-containing protein 1, PAS-B domain (EPAS1, Homo sapiens, UniProt Q99814)","binding, isothermal titration calorimetry",,<0.1% DMSO,Kd,600 nM
C[C@H](CCCC(C)(C)O)[C@H]1CC[C@H]2[C@@H]3CC=C4C[C@@H](O)CC[C@]4(C)[C@H]3CC[C@]12C,"Osh4 protein, yeast",binding,,,Kd,55 nM
Cn1nc(C(=O)NCCc2ccccc2)c2c1-c1nc(Nc3ccccc3)ncc1CC2,CDK2,,,,IC50,697 nM
